Published values gathered from unrelated publications.
Lines come from different studies, so protocols differ. Several values in a cell are separate wells, animals, samples, runs or records. ± marks the error that the study gave.

Compound | target | assay | test system | conditions | how to read | measurement | value
Cn1nc(CCN)c(=O)c2c(=O)[nH]c(N)nc21 | folP (Bacteria, UniProt P0AC13) | CETSA HiBiT | Escherichia coli, whole cells | concentration not given | baseline: DMSO | melting temperature shift | 0.9 °C
C#CCNC(=O)CN(Cc1ccc(-c2ccc(F)c(CN3CCS(=O)(=O)CC3)n2)cc1)C(=O)c1ccc(C2(C(F)(F)F)N=N2)cc1 | Protein disulfide-isomerase (P4HB, Cricetulus griseus, UniProt Q8R4U2) | chemical proteomics | CHO cells overexpressing CB2 | 10 µM, unit not given | baseline: untreated | photoaffinity enrichment | 13 ± 1
CCO[C@H]1[C@H](O)[C@@H](N)[C@@H](O[C@H]2[C@H](O[C@@H]3O[C@H](CO)[C@@H](O[C@H]4O[C@@H](CN)[C@@H](O)[C@H](O)[C@H]4N)[C@H]3O)[C@@H](O)[C@H](N)C[C@@H]2N)O[C@@H]1CO | Htr1b (Rattus norvegicus, UniProt P28564) | radioligand binding | – | 10 µM, 1% DMSO | – | specific binding | 0%
CCc1nc2ccc(C(=O)NCCCN(C)C)cn2c1N(C)Cc1cccs1 | ache (Electrophorus electricus, UniProt O42275) | inhibitor | – | 5 µM | – | activity | active
CSCC[C@@H](N)C(=O)N[C@H](C)C(=O)N[C@H](C)C(=O)N[C@@H](C(=O)N[C@H](C)C(=O)NCC(=O)N[C@H](CC(C)C)C(=O)N[C@H](Cc1ccc(O)cc1)C(=O)NCC(=O)N[C@H](CC(C)C)C(=O)NCC(=O)N[C@H](CCC(=O)O)C(=O)N[C@H](CC(=O)O)C(=O)N[C@H](CCCNC(=N)N)C(=O)N[C@H](CCC(N)=O)C(=O)N[C@H](Cc1c[nH]cn1)C(=O)N[C@H](CCCNC(=N)N)C(=O)N[C@H](CCCCN)C(=O)N[C@H](CCCCN)C(=O)N[C@H](CCC(N)=O)C(N)=O)C(C)C | Sh, DEL6-46 (Drosophila melanogaster, UniProt P08510) | ion current, blocker, inside-out patch clamp | – | +50 mV | – | Hill coefficient | 0.86
CN(C)CCCSC(=S)N1CCN(C(=O)/C=C/c2coc3ccccc3c2=O)CC1 | Nucleoprotein (N, Tomato spotted wilt virus, UniProt P25999, R94A/Y184A) | binding, microscale thermophoresis | – | 3.906 µM | dose series | MST response | 0.899 a.u.
Cc1ccc(N2CC3CCC(C2)N3C)cc1C(=O)N[C@H](C)c1cc(-c2cnn(C)c2)nc2ccccc12 | USP2 (Homo sapiens, UniProt O75604) | enzyme activity | – | 10 µM, 0.5 h | – | remaining activity | 98.7%
N[C@H](C(=O)N1CCCC1)C1CCN(c2nccc3c(-c4ncc(Cl)cc4Cl)cccc23)CC1 | PADI2 (Homo sapiens, UniProt Q9Y2J8) | enzyme activity | – | 1.536 µM, high-affinity site, with: Ca2+ 1.5 mM | – | kcat | 1.16 s⁻¹ and 1.11 s⁻¹
O=C(NC1CCN(c2ncnc3[nH]cnc23)CC1)c1cccc(NS(=O)(=O)c2ccc(C(F)(F)F)cc2)c1 | RNMT (Homo sapiens, UniProt O43148) | enzyme activity, inhibitor | – | 200 µM | – | inhibition | 5.52%
C[C@H](NCc1ccc(-c2ccc(C(F)(F)F)cc2)cc1)C(N)=O | BRAF (Homo sapiens, UniProt P15056) | cell-free assay, competition with immobilised ligand | – | 1 µM | – | inhibition | 6%
CN(C)[C@H]1C[C@@]23CC[C@@]4(O2)C(=CC[C@]2(C)[C@@H](c5ccc6ccncc6c5)CC[C@H]24)C=C3[C@@H](O)[C@@H]1O | CSK (Homo sapiens, UniProt P41240) | ATP probe labelling, inhibitor, KiNativ profiling | – | 0.1 µM | – | inhibition | -5.7%
O=C(Cc1ccc(Cl)c(Cl)c1)N1CCN(CCO)[C@@H]2COC[C@H](N3CCCC3)[C@H]21 (relative stereo) | OPRK1 (Homo sapiens, UniProt P41145) | β-arrestin-2 recruitment, agonist | U2OS | 1.5 h | baseline: U-69593 maximal response | Emax | 96%
CC(C)CC(O)(CC(C)C)c1cn(C(=O)N2CCCC2)nn1 | (Lyso)-N-acylphosphatidylethanolamine lipase (Abhd4, Mus musculus, UniProt Q8VD66) | probe labelling, inhibitor, refers to: Abhd4 | mouse, brain | i.p., 0.8 mg/kg, 4 h, single peptide | baseline: treated over vehicle mice, lower = stronger inhibition | activity ratio-of-ratios | 0.53 and 0.5 and 0.49 and 0.56 and 0.55 and 0.57
CON(C(=O)c1cn(C)nc1C(F)F)C(C)Cc1c(Cl)cc(Cl)cc1Cl (stereo not drawn) | SDHD/SDHC/SDHB (Sus scrofa, UniProt A5GZW8+D0VWV4+Q007T0) | enzyme activity, inhibitor, DCIP reduction | pig | 0.6 µM, with: DCIP 160 µM | – | reaction velocity | 0.0122 µM/s and 0.0113 µM/s and 0.013 µM/s
CC(C)[C@H]1NC(=O)C[C@H]2/C=C/CCSSC[C@@H](NC1=O)C(=O)N[C@H](Cc1cccc3ccccc13)C(=O)NCC(=O)O2 | PTK6 (Homo sapiens, UniProt Q13882) | enzyme activity, inhibitor | – | 10 µM | – | inhibition | 10.2%
CS(C)(=O)=Nc1ccc(-c2ccc(-c3nc4cc(O[C@@H]5CO[C@H]6[C@@H]5OC[C@H]6O)[nH]c4cc3F)cc2)cc1 | GRK1 (Homo sapiens, UniProt Q15835) | enzyme activity, inhibitor | – | 10 µM | – | inhibition | 6%
CC(=O)N[C@@H](CCC(N)=O)C(=O)N[C@@H](CC1CCCCC1)C(=O)N[C@@H](CNC(=O)CCl)C(=O)N[C@@H](CC(C)C)C(=O)N[C@@H](Cc1ccccc1)C(=O)O | Beta sliding clamp (Escherichia coli, UniProt P0A988) | binding, isothermal titration calorimetry | – | 37 °C | – | ΔH | -47.3 kJ/mol
COC(=O)[C@@H](NC(=O)c1nn(Cc2ccc(F)cc2)c2cc(OCCCCNC(=N)N)ccc12)C(C)(C)C | Cannabinoid receptor 1, with Gi1 (CNR1, Homo sapiens, UniProt P21554) | GTP turnover, agonist, refers to: Gi1 Gα subtype | – | – | – | maximal efficacy | 176%
O=C1NC(=O)c2c1c1cc(F)c[n+]3c1c1c2c2cc(O)ccc2[n]1[Ru-4]312([N]=C=S)[S+]3CC[S+]1CC[S+]2CC3 (stereo not drawn) | SRPK2 (Homo sapiens, UniProt P78362) | enzyme activity | – | 100 nM, human enzyme, with: 10 µM ATP | baseline: untreated | remaining activity | 39%
O=C(N[C@@H]1c2ccccc2C[C@H]1N1CCCC1)c1ccc(-c2ccnc3[nH]ccc23)nc1 | PRKX (Homo sapiens, UniProt P51817) | binding, competition with immobilised ligand | – | 3 µM | – | remaining binding | 4.6%
CCc1nnc(-c2c(OC)cc(-c3cnc4cc(-c5cnn(C)c5)ccn34)cc2OC)o1 | HTR1B (Homo sapiens, UniProt P28222) | antagonist radioligand, radioligand binding | – | 10 µM, SafetyScreen44 5-HT1B mean | lower = stronger displacement | remaining binding | 122%
OC1Cc2ccccc2CC1N1CCC2(C=Cc3cc(Br)ccc32)CC1 (racemic) | SIGMAR1 (Homo sapiens, UniProt Q99720) | – | rat liver (sigma2), human sigma1 | – | baseline: Ki sigma2 over Ki sigma1 | selectivity ratio | 290
C[n+]1cn([C@@H]2O[C@H](COP(=O)([S-])OP(=O)(O)OP(=O)(O)OP(=O)([S-])OC[C@H]3O[C@@H](n4c[n+](C)c5c(O)nc(N)nc54)[C@H](O)[C@@H]3O)[C@@H](O)[C@H]2O)c2nc(N)nc(O)c21 (stereo partly drawn) | mRNA decapping complex subunit 2 (dcp2, Schizosaccharomyces pombe, UniProt O13828) | single-turnover kinetics | 29-nt native-capped RNA substrate | 0.125 mM | – | kmax | 0.39 ± 0.2 min⁻¹
CCc1cccc2c(C(=O)NC3CCN(C(=O)C(C)C)CC3)c[nH]c12 | Genome polyprotein, 3C protease (rhinovirus B14, UniProt P03303) | protease activity, SAMDI-MS | – | – | – | Hill slope | 0.965
C#CCCCCOc1ccc2c(c1)CCCN2C(=O)CCl | QSOX1 (Homo sapiens, UniProt O00391) | mass spectrometry profiling | H460 cell lysate | 100 µM over 10 µM, UniProt O00391 | baseline: high over low concentration | reactivity ratio | 1.63
CCOC(=O)[C@@H]1Cc2c(cc([N+](=O)[O-])cc2[N+](=O)[O-])[C@H](O)[C@]12C(=O)Nc1ccc(Br)cc12 | PIK3CA (Homo sapiens, UniProt P42336) | binding, competition with immobilised ligand | – | 0.1 µM | – | remaining binding | 100%
Cc1cc(C)cc(/N=N/c2cccc([B-](F)(F)F)c2)c1.[K+] | Chymotrypsinogen A (Bos taurus, UniProt P00766) | enzyme activity, inhibitor | – | with: Suc-AAPF-AMC | baseline: Ki cis over Ki trans | switching factor | 4.9 ± 1

For quick reference, copied from above:
Compound | target | assay | test system | conditions | how to read | measurement | value
C#CCNC(=O)CN(Cc1ccc(-c2ccc(F)c(CN3CCS(=O)(=O)CC3)n2)cc1)C(=O)c1ccc(C2(C(F)(F)F)N=N2)cc1 | Protein disulfide-isomerase (P4HB, Cricetulus griseus, UniProt Q8R4U2) | chemical proteomics | CHO cells overexpressing CB2 | 10 µM, unit not given | baseline: untreated | photoaffinity enrichment | 13 ± 1
CN(C)[C@H]1C[C@@]23CC[C@@]4(O2)C(=CC[C@]2(C)[C@@H](c5ccc6ccncc6c5)CC[C@H]24)C=C3[C@@H](O)[C@@H]1O | CSK (Homo sapiens, UniProt P41240) | ATP probe labelling, inhibitor, KiNativ profiling | – | 0.1 µM | – | inhibition | -5.7%
C[n+]1cn([C@@H]2O[C@H](COP(=O)([S-])OP(=O)(O)OP(=O)(O)OP(=O)([S-])OC[C@H]3O[C@@H](n4c[n+](C)c5c(O)nc(N)nc54)[C@H](O)[C@@H]3O)[C@@H](O)[C@H]2O)c2nc(N)nc(O)c21 (stereo partly drawn) | mRNA decapping complex subunit 2 (dcp2, Schizosaccharomyces pombe, UniProt O13828) | single-turnover kinetics | 29-nt native-capped RNA substrate | 0.125 mM | – | kmax | 0.39 ± 0.2 min⁻¹
CON(C(=O)c1cn(C)nc1C(F)F)C(C)Cc1c(Cl)cc(Cl)cc1Cl (stereo not drawn) | SDHD/SDHC/SDHB (Sus scrofa, UniProt A5GZW8+D0VWV4+Q007T0) | enzyme activity, inhibitor, DCIP reduction | pig | 0.6 µM, with: DCIP 160 µM | – | reaction velocity | 0.0122 µM/s and 0.0113 µM/s and 0.013 µM/s
CCc1nnc(-c2c(OC)cc(-c3cnc4cc(-c5cnn(C)c5)ccn34)cc2OC)o1 | HTR1B (Homo sapiens, UniProt P28222) | antagonist radioligand, radioligand binding | – | 10 µM, SafetyScreen44 5-HT1B mean | lower = stronger displacement | remaining binding | 122%
